Published values collected from several papers.
Every numbered part comes from another study and shows a few of its results, in no order. Several values in a cell are separate wells, animals, samples, runs or records.
UniProt Q9UQM7, sequence (whole entry, looked up): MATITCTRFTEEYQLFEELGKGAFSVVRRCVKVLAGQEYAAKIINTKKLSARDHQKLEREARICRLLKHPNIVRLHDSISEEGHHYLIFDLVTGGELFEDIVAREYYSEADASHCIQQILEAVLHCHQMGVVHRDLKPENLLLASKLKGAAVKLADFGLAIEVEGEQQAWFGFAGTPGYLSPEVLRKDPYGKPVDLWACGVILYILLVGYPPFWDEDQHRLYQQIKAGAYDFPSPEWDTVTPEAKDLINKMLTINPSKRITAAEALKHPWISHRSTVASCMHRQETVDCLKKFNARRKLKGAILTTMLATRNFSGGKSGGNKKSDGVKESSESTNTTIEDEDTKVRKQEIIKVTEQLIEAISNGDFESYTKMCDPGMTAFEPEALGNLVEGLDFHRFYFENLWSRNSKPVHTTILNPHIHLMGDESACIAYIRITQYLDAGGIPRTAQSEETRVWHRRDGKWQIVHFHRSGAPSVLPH
UniProt P51957, sequence (whole entry, looked up): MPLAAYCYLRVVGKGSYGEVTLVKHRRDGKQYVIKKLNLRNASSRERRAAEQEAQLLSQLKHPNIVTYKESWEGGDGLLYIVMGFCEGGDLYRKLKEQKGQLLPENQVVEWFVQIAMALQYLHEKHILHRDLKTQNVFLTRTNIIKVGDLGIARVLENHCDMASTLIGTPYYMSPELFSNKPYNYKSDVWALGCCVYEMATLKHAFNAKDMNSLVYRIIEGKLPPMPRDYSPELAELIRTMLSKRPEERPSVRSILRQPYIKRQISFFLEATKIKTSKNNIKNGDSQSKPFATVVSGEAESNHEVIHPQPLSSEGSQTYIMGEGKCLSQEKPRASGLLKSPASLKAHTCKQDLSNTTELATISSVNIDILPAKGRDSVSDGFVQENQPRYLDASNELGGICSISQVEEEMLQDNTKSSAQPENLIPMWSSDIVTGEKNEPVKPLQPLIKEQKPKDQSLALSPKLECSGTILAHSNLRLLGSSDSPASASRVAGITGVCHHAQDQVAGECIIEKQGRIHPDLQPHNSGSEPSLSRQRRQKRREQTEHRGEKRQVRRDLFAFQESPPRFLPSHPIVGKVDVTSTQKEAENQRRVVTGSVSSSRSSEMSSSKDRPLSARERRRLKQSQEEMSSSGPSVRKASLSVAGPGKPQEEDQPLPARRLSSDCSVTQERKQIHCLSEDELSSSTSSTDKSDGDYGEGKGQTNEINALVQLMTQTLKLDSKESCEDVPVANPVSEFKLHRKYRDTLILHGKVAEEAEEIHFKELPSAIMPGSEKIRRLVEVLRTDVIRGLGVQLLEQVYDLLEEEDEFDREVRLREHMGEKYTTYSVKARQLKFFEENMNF
UniProt O14757, sequence (whole entry, looked up): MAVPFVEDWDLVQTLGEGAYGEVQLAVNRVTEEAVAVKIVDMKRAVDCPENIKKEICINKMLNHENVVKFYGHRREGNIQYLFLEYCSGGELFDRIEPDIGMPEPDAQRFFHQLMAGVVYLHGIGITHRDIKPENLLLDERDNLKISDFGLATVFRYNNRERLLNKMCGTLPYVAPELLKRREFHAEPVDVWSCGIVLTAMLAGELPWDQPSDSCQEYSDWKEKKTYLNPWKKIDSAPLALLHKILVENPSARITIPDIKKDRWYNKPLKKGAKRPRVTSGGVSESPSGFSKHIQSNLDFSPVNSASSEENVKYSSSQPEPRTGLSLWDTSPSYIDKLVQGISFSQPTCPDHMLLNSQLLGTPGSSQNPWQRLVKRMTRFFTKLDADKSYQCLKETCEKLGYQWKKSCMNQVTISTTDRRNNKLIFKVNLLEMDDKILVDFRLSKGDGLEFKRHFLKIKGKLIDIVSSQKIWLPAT
UniProt Q8IW41, sequence (whole entry, looked up): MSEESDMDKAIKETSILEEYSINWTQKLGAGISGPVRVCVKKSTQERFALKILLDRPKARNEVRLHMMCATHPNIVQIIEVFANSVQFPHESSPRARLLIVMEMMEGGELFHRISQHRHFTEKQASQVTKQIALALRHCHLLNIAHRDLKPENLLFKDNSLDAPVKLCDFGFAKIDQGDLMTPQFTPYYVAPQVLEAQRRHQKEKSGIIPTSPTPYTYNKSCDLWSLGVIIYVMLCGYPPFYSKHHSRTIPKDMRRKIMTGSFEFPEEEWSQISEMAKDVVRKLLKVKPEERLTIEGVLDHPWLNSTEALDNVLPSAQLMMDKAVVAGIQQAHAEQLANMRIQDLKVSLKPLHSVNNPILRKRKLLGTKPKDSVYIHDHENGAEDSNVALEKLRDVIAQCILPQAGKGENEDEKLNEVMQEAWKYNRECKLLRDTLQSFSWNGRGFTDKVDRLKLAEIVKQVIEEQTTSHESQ

Series 1
SMILES: CNCc1ccccc1-c1csc([C@H](C)Nc2nc(C)nc3cc(OC)c(OC)cc23)c1
Method: competition with immobilised ligand
Concentration: 1 µM
Quantity: remaining binding
target = Tyrosine-protein kinase ABL1, phosphorylated (ABL1, Homo sapiens, UniProt P00519, M351T); read-out = cell-free assay; value = 85%
target = Serine/threonine-protein kinase mTOR (MTOR, Homo sapiens, UniProt P42345); read-out = cell-free assay; value = 100%
target = Calcium/calmodulin-dependent protein kinase type II subunit alpha (CAMK2A, Homo sapiens, UniProt Q9UQM7); read-out = cell-free assay; value = 100%
target = Tyrosine-protein kinase SYK (SYK, Homo sapiens, UniProt P43405); read-out = cell-free assay; value = 100%
target = Serine/threonine-protein kinase PRP4 homolog (PRPF4B, Homo sapiens, UniProt Q13523); read-out = cell-free assay; value = 100%
target = Serine/threonine-protein kinase Nek4 (NEK4, Homo sapiens, UniProt P51957); read-out = cell-free assay; value = 83%
target = Fibroblast growth factor receptor 3 (FGFR3, Homo sapiens, UniProt P22607, G697C); read-out = cell-free assay; value = 100%
target = Serine/threonine-protein kinase RIO3 (RIOK3, Homo sapiens, UniProt O14730); read-out = cell-free assay; value = 100%
target = Mitogen-activated protein kinase kinase kinase kinase 3 (MAP4K3, Homo sapiens, UniProt Q8IVH8); read-out = cell-free assay; value = 100%
target = Serine/threonine-protein kinase 17B (STK17B, Homo sapiens, UniProt O94768); read-out = cell-free assay; value = 100%
target = Epidermal growth factor receptor (EGFR, Homo sapiens, UniProt P00533, L858R); read-out = cell-free assay; value = 100%
target = Tyrosine-protein kinase FRK (FRK, Homo sapiens, UniProt P42685); read-out = cell-free assay; value = 100%
target = Serine/threonine-protein kinase Chk1 (CHEK1, Homo sapiens, UniProt O14757); read-out = cell-free assay; value = 100%
target = Serine/threonine-protein kinase D3 (PRKD3, Homo sapiens, UniProt O94806); read-out = cell-free assay; value = 100%
target = Mitotic checkpoint serine/threonine-protein kinase BUB1 (BUB1, Homo sapiens, UniProt O43683); read-out = cell-free assay; value = 100%
target = Mitogen-activated protein kinase 8 (MAPK8, Homo sapiens, UniProt P45983); read-out = cell-free assay; value = 81%
target = Serine/threonine-protein kinase Nek6 (NEK6, Homo sapiens, UniProt Q9HC98); read-out = cell-free assay; value = 100%
target = Mitogen-activated protein kinase kinase kinase 13 (MAP3K13, Homo sapiens, UniProt O43283); read-out = cell-free assay; value = 91%
target = Tyrosine-protein kinase ABL1, phosphorylated (ABL1, Homo sapiens, UniProt P00519, E255K); read-out = binding; value = 81%
target = MAP kinase-activated protein kinase 5 (MAPKAPK5, Homo sapiens, UniProt Q8IW41); read-out = cell-free assay; value = 100%
target = Serine/threonine-protein kinase BRSK1 (BRSK1, Homo sapiens, UniProt Q8TDC3); read-out = cell-free assay; value = 89%

Series 2
Target: DNA polymerase theta, ATPase domain (POLQ, Homo sapiens, UniProt O75417)
UniProt O75417, sequence (whole entry, unmodified, looked up): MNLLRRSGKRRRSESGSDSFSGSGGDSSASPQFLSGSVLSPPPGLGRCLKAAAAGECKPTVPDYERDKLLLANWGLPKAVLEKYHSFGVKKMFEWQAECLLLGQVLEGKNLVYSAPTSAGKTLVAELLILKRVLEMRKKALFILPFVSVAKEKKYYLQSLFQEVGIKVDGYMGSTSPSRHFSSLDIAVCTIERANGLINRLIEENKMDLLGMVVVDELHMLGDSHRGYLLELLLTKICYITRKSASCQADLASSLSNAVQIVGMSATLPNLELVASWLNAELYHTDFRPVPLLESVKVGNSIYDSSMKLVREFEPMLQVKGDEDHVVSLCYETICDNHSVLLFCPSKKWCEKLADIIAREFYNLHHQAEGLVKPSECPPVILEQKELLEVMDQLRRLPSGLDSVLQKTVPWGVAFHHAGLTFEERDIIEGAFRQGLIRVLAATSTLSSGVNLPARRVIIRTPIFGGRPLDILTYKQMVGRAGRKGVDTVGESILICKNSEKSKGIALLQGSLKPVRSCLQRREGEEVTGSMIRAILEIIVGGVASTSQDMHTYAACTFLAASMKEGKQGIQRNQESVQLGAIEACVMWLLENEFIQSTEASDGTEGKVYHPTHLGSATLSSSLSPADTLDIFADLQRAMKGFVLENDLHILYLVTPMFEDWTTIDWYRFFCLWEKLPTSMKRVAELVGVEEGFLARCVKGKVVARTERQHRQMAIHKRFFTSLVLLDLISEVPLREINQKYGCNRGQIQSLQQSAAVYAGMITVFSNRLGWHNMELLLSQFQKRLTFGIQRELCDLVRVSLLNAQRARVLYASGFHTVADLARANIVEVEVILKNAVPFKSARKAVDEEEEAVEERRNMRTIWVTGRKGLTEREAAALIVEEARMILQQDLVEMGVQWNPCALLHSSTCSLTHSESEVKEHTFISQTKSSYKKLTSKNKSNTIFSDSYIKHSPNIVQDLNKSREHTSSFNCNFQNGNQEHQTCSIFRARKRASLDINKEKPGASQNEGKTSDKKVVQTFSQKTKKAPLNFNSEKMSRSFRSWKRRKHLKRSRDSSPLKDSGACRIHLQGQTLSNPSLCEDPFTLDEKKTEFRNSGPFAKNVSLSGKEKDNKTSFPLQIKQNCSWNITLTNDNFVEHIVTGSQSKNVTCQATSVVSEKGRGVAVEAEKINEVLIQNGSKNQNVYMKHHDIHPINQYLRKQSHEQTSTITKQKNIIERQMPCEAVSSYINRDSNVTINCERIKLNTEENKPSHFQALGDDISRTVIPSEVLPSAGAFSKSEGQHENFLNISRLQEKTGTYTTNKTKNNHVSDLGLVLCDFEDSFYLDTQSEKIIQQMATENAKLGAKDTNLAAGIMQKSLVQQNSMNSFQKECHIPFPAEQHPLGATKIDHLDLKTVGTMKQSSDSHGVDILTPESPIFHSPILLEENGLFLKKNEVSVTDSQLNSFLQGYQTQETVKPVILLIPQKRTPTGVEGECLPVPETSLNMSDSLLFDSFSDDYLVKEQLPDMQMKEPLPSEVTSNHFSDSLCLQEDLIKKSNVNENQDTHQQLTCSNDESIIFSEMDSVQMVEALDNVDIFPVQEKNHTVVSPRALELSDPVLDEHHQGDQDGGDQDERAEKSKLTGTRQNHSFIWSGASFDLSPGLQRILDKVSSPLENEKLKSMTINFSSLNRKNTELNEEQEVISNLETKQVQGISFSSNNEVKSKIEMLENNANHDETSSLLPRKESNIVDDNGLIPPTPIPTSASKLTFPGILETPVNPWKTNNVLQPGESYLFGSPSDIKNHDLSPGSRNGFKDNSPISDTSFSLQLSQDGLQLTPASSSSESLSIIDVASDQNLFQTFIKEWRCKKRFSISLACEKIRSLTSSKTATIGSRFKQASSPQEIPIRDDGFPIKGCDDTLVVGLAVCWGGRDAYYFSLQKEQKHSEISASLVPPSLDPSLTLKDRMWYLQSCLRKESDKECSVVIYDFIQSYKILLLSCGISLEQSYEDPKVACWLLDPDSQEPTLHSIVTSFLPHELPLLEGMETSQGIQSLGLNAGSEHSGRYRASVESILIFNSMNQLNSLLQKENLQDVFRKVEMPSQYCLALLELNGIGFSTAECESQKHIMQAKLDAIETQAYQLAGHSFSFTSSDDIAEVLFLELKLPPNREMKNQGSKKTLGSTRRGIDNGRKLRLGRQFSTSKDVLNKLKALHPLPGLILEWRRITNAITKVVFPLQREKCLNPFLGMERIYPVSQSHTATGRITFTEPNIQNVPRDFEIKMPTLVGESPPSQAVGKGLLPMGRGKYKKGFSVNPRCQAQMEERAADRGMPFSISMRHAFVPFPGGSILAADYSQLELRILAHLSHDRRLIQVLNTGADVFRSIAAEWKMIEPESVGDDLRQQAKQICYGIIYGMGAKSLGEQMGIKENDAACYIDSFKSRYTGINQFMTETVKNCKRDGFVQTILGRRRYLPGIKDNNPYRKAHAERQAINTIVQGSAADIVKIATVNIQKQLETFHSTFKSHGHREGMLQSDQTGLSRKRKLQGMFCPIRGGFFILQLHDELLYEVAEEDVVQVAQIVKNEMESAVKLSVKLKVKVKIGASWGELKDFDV
Read-out: enzyme activity
Action: inhibitor
Concentration: 77 µM
Relative to: untreated
Quantity: remaining activity
SMILES = Cc1c(NC(=O)c2cccnc2)c(=O)n(-c2ccccc2)n1C; value = 101%
SMILES = C[C@@H](O)[C@H]1C(=O)N2C(C(=O)O)=C(SCCNC=N)C[C@H]12; value = 98.9%
SMILES = CC1CS(=O)(=O)CCN1/N=C/c1ccc([N+](=O)[O-])o1 (stereo not drawn); value = 94.3%
SMILES = CCCCNc1ccc(C(=O)OCCOCCOCCOCCOCCOCCOCCOCCOCCOC)cc1; value = 99.5%
SMILES = C=C1/C(=C\C=C2/CCC[C@]3(C)[C@@H]([C@H](C)/C=C/[C@H](C)C(C)C)CC[C@@H]23)C[C@@H](O)C[C@@H]1O; value = 102%
SMILES = C[C@@H](c1ncncc1F)[C@](O)(Cn1cncn1)c1ccc(F)cc1F; value = 98.1% and 96.7%
SMILES = Nc1ncn(C2O[C@H](CO)[C@@H](O)[C@H]2O)c(=O)n1 (stereo partly drawn); value = 101%
SMILES = CO[C@H]1C[C@H](O[C@H]2[C@H](C)[C@@H](O[C@@H]3O[C@H](C)C[C@H](N(C)C)[C@H]3O)[C@@H](C)C[C@@]3(CO3)C(=O)[C@H](C)[C@@H](O)[C@@H](C)[C@@H](C)OC(=O)[C@@H]2C)O[C@@H](C)[C@@H]1O; value = 87.5%

Series 3
SMILES: c1cc(-c2cnn3cc(-c4ccc(OCCN5CCCCC5)cc4)cnc23)ccn1
Read-out: enzyme activity
Action: inhibitor
Concentration: 0.5 µM
Relative to: control
Quantity: remaining activity
target = Leucine-rich repeat serine/threonine-protein kinase 2 (LRRK2, Homo sapiens, UniProt Q5S007); value = 103%
target = Ephrin type-A receptor 5 (EPHA5, Homo sapiens, UniProt P54756); value = 66.4%
target = Casein kinase II subunit alpha (CSNK2A1, Homo sapiens, UniProt P68400); value = 87.5%
target = Mitogen-activated protein kinase 13 (MAPK13, Homo sapiens, UniProt O15264); value = 96.9%
target = Serine/threonine-protein kinase Chk1 (CHEK1, Homo sapiens, UniProt O14757); value = 86.4%
target = Interleukin-1 receptor-associated kinase 4 (IRAK4, Homo sapiens, UniProt Q9NWZ3); value = 105%
target = RAC-gamma serine/threonine-protein kinase (AKT3, Homo sapiens, UniProt Q9Y243); value = 104%
target = Casein kinase I isoform alpha (CSNK1A1, Homo sapiens, UniProt P48729); value = 55.1%
target = MAP kinase-interacting serine/threonine-protein kinase 2 (MKNK2, Homo sapiens, UniProt Q9HBH9); value = 65.4%
target = Mitogen-activated protein kinase kinase kinase kinase 2 (MAP4K2, Homo sapiens, UniProt Q12851); value = 10.8%
target = Mast/stem cell growth factor receptor Kit (KIT, Homo sapiens, UniProt P10721); value = 21.4%
target = Dual specificity mitogen-activated protein kinase kinase 6 (MAP2K6, Homo sapiens, UniProt P52564); value = 87.8%
target = Mitogen-activated protein kinase kinase kinase 10 (MAP3K10, Homo sapiens, UniProt Q02779); value = 95.8%
target = Mitogen-activated protein kinase 12 (MAPK12, Homo sapiens, UniProt P53778); value = 100%
target = Protein kinase C delta type (PRKCD, Homo sapiens, UniProt Q05655); value = 93.9%
target = cGMP-dependent protein kinase 1 (PRKG1, Homo sapiens, UniProt Q13976); value = 57.6%
target = Cyclin-dependent kinase 9, with cyclin T1 (CDK9, Homo sapiens, UniProt P50750); value = 65%
target = Serine/threonine-protein kinase PLK2 (PLK2, Homo sapiens, UniProt Q9NYY3); value = 97.1%
target = Protein kinase C iota type (PRKCI, Homo sapiens, UniProt P41743); value = 98.1%
target = Serine/threonine-protein kinase Nek4 (NEK4, Homo sapiens, UniProt P51957); value = 82.5%
target = Tyrosine-protein kinase Lyn (LYN, Homo sapiens, UniProt P07948); value = 12.9%
target = Tyrosine-protein kinase BTK (BTK, Homo sapiens, UniProt Q06187); value = 42.8%
target = Serine/threonine-protein kinase WNK2 (WNK2, Homo sapiens, UniProt Q9Y3S1); value = 120%

Series 4
Target: Calcium/calmodulin-dependent protein kinase type II subunit alpha (CAMK2A, Homo sapiens, UniProt Q9UQM7)
Read-out: enzyme activity
Action: inhibitor
Concentration: 10 µM
Quantity: inhibition
SMILES = OCC(CO)N[C@H]1C[C@](O)(CO)[C@@H](O)[C@H](O)[C@H]1O; value = 15%
SMILES = C=C1C(=O)O[C@@H]2C[C@@]3(C)CCC[C@H](C)C3=C[C@H]12; value = 15%
SMILES = CC1=CCC(O)(C(C)C)CC1 (stereo not drawn); value = 41%
SMILES = CCCCCC/C=C\CCCCCCCC(=O)O; value = 33%
SMILES = O=c1cc(-c2ccc(O)cc2)oc2cc(O[C@@H]3O[C@H](CO)[C@@H](O)[C@H](O)[C@H]3O[C@@H]3OC[C@](O)(CO)[C@H]3O)cc(O)c12; value = 5%
SMILES = CCCCN(CCCC)CC(O)c1cc(Cl)cc2c1-c1ccc(Cl)cc1/C2=C/c1ccc(Cl)cc1 (stereo not drawn); value = -1%
SMILES = O=C(O)Cc1cccc(O)c1; value = -3%
SMILES = C[C@H](CS)C(=O)N1CCC[C@H]1C(=O)O; value = -9%
SMILES = Oc1nc(O)c2nc(O)[nH]c2n1; value = -5%
SMILES = O=C1CN(/N=C/C=C/c2ccc([N+](=O)[O-])o2)C(=O)N1; value = 1%
SMILES = CN(Cc1cc(Br)cc(Br)c1N)C1CCCCC1; value = -4%
SMILES = C[C@H](O)[C@H](O)c1cnc2nc(N)[nH]c(=O)c2n1; value = -6%
SMILES = CCc1oc2ccccc2c1C(=O)c1cc(Br)c(O)c(Br)c1; value = -12%
SMILES = CNCCC[C@]12CC[C@H](c3ccccc31)c1ccccc12; value = -13%
